Published values collected from several papers.
Parts stem from different laboratories: compare values within a part only. Positions count from the first letter of the parent shown.
Sequence of UniProt Q84WU6 (whole entry, looked up): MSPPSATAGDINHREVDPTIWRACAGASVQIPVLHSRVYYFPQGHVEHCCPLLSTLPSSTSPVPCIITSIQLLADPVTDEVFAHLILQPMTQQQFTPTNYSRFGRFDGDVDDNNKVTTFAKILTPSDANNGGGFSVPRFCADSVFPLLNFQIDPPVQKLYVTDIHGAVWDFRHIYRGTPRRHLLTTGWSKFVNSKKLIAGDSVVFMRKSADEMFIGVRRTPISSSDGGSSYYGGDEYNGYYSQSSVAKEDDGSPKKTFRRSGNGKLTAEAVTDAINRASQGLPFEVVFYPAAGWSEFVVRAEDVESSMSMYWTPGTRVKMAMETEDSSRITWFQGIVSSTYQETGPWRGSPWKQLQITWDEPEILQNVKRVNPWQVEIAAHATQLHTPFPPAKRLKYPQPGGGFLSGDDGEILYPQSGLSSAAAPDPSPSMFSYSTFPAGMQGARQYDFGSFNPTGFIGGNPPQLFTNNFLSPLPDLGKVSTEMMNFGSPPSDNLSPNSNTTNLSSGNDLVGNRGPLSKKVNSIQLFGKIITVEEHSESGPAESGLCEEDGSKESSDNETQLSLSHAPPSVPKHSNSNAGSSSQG
Sequence of UniProt Q8H174 (whole entry, looked up): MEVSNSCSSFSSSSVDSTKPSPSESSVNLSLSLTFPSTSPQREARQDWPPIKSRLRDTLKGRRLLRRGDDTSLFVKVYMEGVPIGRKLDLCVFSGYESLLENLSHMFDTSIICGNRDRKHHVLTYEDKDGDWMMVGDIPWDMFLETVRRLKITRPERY
Sequence of UniProt Q9XED8 (whole entry, looked up): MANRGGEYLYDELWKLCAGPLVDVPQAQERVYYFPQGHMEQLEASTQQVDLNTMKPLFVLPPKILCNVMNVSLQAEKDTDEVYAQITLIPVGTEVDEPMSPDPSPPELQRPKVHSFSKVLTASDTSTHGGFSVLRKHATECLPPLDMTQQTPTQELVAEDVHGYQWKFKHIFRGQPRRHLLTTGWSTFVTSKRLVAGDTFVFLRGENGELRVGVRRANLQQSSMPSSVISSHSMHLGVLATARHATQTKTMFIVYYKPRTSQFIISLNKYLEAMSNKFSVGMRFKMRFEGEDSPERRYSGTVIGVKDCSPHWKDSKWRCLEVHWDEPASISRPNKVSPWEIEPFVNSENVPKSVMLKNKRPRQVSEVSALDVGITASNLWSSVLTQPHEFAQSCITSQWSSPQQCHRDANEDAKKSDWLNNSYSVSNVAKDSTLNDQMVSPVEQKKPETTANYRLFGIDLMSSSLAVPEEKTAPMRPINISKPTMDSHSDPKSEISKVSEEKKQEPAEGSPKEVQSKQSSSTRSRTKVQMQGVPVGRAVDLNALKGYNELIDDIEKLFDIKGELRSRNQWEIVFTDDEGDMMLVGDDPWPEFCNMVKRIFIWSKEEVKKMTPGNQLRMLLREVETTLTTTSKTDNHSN
Sequence of UniProt Q9XFM0 (whole entry, looked up): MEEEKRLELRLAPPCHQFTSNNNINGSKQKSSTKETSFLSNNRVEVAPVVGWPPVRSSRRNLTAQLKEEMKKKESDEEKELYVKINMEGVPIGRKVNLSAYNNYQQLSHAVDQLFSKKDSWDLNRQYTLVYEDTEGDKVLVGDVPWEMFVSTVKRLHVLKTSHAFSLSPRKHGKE
Sequence of UniProt P93022 (whole entry, looked up): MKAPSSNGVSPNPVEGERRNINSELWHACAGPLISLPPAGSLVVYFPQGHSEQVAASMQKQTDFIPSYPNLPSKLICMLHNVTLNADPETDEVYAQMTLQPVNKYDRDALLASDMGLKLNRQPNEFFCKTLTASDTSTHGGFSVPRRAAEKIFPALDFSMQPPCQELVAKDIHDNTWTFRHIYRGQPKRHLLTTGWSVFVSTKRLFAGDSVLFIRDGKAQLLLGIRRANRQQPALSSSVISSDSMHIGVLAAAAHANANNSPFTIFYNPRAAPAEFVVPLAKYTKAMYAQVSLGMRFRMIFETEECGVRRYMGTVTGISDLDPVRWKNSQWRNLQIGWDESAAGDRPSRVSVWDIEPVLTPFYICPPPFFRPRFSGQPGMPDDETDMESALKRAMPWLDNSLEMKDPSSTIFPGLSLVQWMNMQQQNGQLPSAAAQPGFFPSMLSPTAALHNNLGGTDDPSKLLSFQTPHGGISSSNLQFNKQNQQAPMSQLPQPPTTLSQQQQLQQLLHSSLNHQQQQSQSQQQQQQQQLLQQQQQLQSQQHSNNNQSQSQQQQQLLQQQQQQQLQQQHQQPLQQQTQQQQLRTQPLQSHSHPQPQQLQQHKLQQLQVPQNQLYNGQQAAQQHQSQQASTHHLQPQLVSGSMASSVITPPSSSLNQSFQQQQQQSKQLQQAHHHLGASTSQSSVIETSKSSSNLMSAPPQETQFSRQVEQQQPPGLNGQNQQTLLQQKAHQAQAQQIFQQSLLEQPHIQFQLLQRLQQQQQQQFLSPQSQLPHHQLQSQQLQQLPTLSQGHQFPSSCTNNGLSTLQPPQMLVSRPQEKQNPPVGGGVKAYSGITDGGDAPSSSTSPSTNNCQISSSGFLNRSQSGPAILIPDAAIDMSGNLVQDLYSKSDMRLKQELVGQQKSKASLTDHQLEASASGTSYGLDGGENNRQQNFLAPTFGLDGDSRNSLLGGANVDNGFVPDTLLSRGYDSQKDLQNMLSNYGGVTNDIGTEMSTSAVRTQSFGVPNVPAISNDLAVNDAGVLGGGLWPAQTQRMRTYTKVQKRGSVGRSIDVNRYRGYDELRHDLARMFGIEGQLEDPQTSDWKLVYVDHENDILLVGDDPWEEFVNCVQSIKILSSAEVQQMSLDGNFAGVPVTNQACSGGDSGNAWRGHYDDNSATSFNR
Sequence of UniProt Q9ZTX9 (whole entry, looked up): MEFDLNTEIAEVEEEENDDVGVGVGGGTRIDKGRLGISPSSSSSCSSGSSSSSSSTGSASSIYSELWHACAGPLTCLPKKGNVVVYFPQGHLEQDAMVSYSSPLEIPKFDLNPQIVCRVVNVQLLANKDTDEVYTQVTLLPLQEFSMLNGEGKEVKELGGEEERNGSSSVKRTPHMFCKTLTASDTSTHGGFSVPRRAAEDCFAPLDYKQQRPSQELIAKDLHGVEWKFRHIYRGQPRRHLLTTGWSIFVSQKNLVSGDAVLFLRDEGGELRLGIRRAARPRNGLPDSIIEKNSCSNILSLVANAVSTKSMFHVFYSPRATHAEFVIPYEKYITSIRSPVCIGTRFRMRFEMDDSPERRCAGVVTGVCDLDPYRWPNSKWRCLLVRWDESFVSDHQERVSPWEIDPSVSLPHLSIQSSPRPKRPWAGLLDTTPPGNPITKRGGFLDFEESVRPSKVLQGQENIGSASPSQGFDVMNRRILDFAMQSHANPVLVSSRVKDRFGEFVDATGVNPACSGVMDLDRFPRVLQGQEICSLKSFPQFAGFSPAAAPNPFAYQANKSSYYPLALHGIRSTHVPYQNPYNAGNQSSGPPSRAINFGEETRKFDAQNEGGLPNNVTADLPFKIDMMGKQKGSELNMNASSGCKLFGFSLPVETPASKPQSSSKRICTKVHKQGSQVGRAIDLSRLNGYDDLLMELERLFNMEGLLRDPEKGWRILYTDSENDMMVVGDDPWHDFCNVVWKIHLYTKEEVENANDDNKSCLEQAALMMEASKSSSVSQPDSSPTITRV
Sequence of UniProt Q9FKM7 (whole entry, looked up): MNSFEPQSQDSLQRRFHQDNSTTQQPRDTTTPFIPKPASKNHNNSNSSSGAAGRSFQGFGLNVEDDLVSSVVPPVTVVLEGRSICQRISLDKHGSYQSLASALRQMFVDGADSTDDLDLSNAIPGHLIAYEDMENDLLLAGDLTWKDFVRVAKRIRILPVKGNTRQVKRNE
Sequence of UniProt O23661 (whole entry, looked up): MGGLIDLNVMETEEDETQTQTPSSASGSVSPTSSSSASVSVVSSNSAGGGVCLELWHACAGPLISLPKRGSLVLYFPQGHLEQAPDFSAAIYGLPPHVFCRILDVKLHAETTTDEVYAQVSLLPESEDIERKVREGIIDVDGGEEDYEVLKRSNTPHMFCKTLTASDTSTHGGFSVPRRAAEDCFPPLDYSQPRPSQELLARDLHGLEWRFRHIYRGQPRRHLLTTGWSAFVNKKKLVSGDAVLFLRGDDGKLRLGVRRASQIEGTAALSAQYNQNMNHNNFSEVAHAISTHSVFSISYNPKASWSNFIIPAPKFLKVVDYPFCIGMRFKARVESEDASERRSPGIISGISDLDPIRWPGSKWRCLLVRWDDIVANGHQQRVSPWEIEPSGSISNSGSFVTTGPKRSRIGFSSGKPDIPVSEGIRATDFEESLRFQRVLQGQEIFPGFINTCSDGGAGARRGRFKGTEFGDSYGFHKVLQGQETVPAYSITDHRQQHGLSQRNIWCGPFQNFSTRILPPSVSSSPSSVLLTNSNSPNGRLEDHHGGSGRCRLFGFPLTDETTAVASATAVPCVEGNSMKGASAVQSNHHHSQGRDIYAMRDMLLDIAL

Series 1
Target: CCNF, cyclin fold, Cln2 fusion (human)
Method: yeast growth competition, sequencing
Sample: yeast
Notes: strong parent motif
Relative to: not given
Reading: higher = stronger binding
Parent: CDKN1B docking peptide (human); PSACRNLFGPVDH
Variant | normalised enrichment score
P10K | 6.95
A3S | 3.65
C4E | 0.682
N6L | 3.72
A3D | -0.0686
P10T | 6.47
S2R | 7.95
L7E | -0.155
G9P | 6.39
D12Q | 6.77
A3T | 7.45
P1T | 7.51
F8S | 0.421
V11R | 7.95
D12I | 7.45
S2I | 6.07
S2P | 7.17
V11K | 5.89
R5Q | 0.236
D12R | 7.79
H13P | 6.92

Series 2
Substance: IAA27 (Arabidopsis thaliana, UniProt Q9ZSY8)
Sequence of UniProt Q9ZSY8 (whole entry, looked up): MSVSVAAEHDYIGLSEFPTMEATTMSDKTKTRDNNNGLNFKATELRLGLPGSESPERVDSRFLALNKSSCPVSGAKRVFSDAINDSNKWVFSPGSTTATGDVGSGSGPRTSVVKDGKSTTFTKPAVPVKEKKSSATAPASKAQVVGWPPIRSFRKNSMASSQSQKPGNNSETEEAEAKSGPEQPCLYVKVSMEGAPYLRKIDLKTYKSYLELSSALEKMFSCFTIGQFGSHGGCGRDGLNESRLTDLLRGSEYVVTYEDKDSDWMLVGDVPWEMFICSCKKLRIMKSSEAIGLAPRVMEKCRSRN
Method: two-hybrid
Reading: higher = firmer interaction
partner | setting | how to read | positive tests
ARF17 (Arabidopsis thaliana, UniProt Q84WU6) | weak activation fusion | relative to: out of 1 tests | 0
IAA28 (Arabidopsis thaliana, UniProt Q9XFM0) | – | relative to: out of 2 tests | 2
ARF6 790-935 (Arabidopsis thaliana, UniProt Q9ZTX8) | – | relative to: out of 4 tests | 4
ARF2 727-859 (Arabidopsis thaliana, UniProt Q94JM3) | – | relative to: out of 4 tests | 0
IAA33 (Arabidopsis thaliana, UniProt Q9FKM7) | – | relative to: out of 4 tests | 2
IAA31 (Arabidopsis thaliana, UniProt Q8H174) | – | relative to: out of 2 tests | 2
ETT (Arabidopsis thaliana, UniProt O23661) | – | relative to: out of 2 tests | 0
ARF4 660-788 (Arabidopsis thaliana, UniProt Q9ZTX9) | – | relative to: out of 4 tests | 0
ARF7 1030-1164 (Arabidopsis thaliana, UniProt P93022) | – | relative to: out of 4 tests | 4
ARF9 519-638 (Arabidopsis thaliana, UniProt Q9XED8) | weak activation fusion | relative to: out of 2 tests | 2

Series 3
Target: ABI1, truncated, D143A, DHFR fusion (Arabidopsis thaliana)
Method: DHFR PCA, deep sequencing
Sample: yeast
Notes: methotrexate growth selection, single substitutions
Added: (+)-ABA 0.39 µM
Relative to: wild-type fitted maximum
Reading: higher = stronger binding
Parent: PYL1, truncated, DHFR fusion (Arabidopsis thaliana); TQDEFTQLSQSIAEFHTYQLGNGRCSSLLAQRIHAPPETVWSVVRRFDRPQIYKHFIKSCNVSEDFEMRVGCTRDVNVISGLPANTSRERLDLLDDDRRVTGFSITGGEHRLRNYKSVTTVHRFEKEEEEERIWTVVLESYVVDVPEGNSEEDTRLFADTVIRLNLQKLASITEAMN; partner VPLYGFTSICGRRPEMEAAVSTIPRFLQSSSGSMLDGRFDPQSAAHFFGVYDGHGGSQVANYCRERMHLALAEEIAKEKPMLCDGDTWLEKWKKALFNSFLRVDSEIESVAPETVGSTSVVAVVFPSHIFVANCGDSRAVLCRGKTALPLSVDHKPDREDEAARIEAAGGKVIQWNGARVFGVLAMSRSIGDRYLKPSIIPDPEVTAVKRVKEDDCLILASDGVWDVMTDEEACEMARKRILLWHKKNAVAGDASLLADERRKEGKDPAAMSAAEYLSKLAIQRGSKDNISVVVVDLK
Variant | relative binding score [%]
R46H | 10.9
V121R | -4.1
T6H | 60.3
K116I | -3.6
H55S | 56.9
V70S | -5.25
R24Y | -4.43
T160Y | 27
K54D | 2.38
Y18H | 51.6
S9D | 33.4
A170K | 58.9
C72Y | -9.61
V43W | -3.8

Series 4
Target: Sal-like protein 4, full length isoform B (SALL4, Homo sapiens, UniProt Q9UJQ4-2, residues 1-616)
Method: universal PBM
Form: double-stranded DNA, one strand shown
Sample: in vitro
Tested at: not given
Notes: 8-mer, flanks averaged, mean of replicates
Reading: higher = stronger binding
Target sequence (chain): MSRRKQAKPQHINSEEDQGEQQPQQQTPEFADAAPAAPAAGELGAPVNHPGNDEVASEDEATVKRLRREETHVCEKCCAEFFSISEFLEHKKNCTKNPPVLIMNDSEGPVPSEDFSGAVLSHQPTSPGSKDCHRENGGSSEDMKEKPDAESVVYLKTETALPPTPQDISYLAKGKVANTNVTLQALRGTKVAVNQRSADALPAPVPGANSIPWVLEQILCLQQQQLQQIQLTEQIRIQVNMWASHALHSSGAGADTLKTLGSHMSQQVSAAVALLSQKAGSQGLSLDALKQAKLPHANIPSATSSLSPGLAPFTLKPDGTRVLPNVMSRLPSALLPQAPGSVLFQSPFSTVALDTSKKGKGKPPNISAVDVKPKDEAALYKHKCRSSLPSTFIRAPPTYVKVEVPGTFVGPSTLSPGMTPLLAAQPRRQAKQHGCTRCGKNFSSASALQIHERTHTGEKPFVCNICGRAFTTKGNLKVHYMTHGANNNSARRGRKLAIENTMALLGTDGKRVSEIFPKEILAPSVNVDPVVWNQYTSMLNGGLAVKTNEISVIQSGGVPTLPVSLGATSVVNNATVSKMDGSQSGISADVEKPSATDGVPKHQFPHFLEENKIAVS
Oligonucleotide | E-score
CGGAAAGA | -0.162
CCCGAGGG | -0.286
ACCGTAGT | -0.227
CCCTTTAG | -0.0994
ATTACTTC | 0.237
AGGATTCG | -0.0341
GACCACTA | -0.0261
GTCCCTAA | 0.061
GGTTCCGA | -0.267
AAGCCCTA | 0.102
CAATGGCC | -0.19
ACCTCAGG | -0.357
GGAACACA | -0.0372
CGCCGAAA | -0.107
AATGCCGG | -0.179
CCCCTGTA | -0.0453
AAATCCCG | -0.0246
GGCTATAA | 0.217
CTTGCTGC | -0.22
TCAATGGA | -0.00996
ACCCTACC | -0.117
AAGCATTG | -0.0513
AGTGTAAC | 0.00414
ACAACGAT | 0.196
AGTCAGCA | 0.00573

Series 5
Target: RNA binding protein fox-1 homolog 2, RRM domain, GST-SBP tag (RBFOX2, Homo sapiens, UniProt O43251-10, residues 100-194)
Method: RNA Bind-n-Seq
Form: RNA
Sample: in vitro
Tested at: 365 nM
Notes: natural RNA segment, single round, ends assumed
Relative to: no-protein control
Reading: higher = stronger binding
All sequences stand within: GGGAGUUCUACAGUCCGACGAUC … UGGAAUUCUCGGGUGCCAA
Target sequence (chain): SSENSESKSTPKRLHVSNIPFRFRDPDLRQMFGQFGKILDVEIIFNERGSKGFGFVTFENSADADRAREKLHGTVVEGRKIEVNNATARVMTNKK
Oligonucleotide | RBNS enrichment (R)
GGUUUUUUGAGGCUUUUGACACAGUUAUUAGUUAAAUCAAAUGUUCAAAAAUACGGAGCAGUGCCUAGUAUCUGGAGAGCAGCACUACCAUUUAUUCUUUCAUUUAUAGU | 0.386
UCCUUCAGCAGACAAAGUCAAGCAGCUUUAAGUACAAGGCAGCUUGAAACCUCUCUGAUGAAAGUGAAAAAUGUGGGUAGCUUAUACUUUCAAACUAAUGCCAGUGACUA | 0.433
UAUUACACCUUCAGAACCAUAACAUGCUUAAGAAAACUUUCCCAAAAUGUUGACCUAGUUAAAUGAGGCUAUAUAAAUUUCUAAUAUUUUACUUAUUCUAUUCAAGGCAU | 0.519
UGCAUGGACAAAGCAGGUAGAGGGGCACCAUCAGGGGCUCUUGCACUAUUUUCACCUCUAAAUAUUACGUACUCAGUAGUGCCCUGCUUCUAGGGCUCUGAAUACGGGCU | 0.913
UUUUAAUGUGGUGCACACUAUAGCCUCACAAACCUGUUAUUCCAGUGUAAUCUGCAGUGUCGUAACUAAAGUUACUGGCUUGGUCUUAUUUGCACAGUUUUUGCGUCUUG | 0.311
ACAUGGUUACUAAGAAGAGAAAAACCUGAUGUUUGCAUAAUAUUUUUUUUCCCCUCGAGAUGGAGUCUUGCUCUGUUGCCCAGGCUGGAGUGCAGUGGCAUGAUCUCAGC | 1.74
UGUCCUCCCAAGAGAAGCACUUCAGUGGUGCAGUGGUAAGAGCCCACAGCAUUGAGGCCAGCCUGACUGAAGGAUGAUGUGAGGCUGUUUGUCACUUCUGUUCUUUUCCC | 0.338
UGGCGGAGAUGCUUCUAAGGCAUGGUCGGGGGAGAGGGCCAACAACUGUCCCUCCUUGAGCACCAGCCCCACCCAAGCAAGCAGACAUUUAUCUUUUGGGUCUGUCCUCU | 0.331
UGGAGAGUGGUGGGGAGCCCUACCUUGUAGCCUUCAGUGGAUGCUCUCCCCUUGGUCACCUCUGGAACAAACAGGUUCCUUCCCUGGGGUCCAUAGGGAGGGACCUCAUG | 0.23
UCACUAUGCGCUAAACGUAAUCCUGACUUUUUGACCCCAGUUACCAUUAAUAGUUUCUGGUUGACCAUUUGAACAUGUAUUAACUUAGGAAGACUAAUUGCCAAUAACGU | 0.523
GUACCCACUCGAGUUGUGCCGUGCACAACCUGUCCAGUAUAUGCAUGUGGUGGCCCUACUGACUGGUAAUGGUUAGAGGCAUUUAUGGAUUUUUAGCUUUGAGGAAAAAC | 9.17
GCGCUCCCUUCAGCCGCCUCGUCGUCAGCGUUCUUAGUCAUGCAUUAUUCGUGUUAGCUGAAAUGCAUUCAGACUUUGUUCUGCGGUGCCCACAGGACUUACCCCUGUAU | 0.278

Series 6
Target: Phosphate system positive regulatory protein PHO4, full length, GST-tagged (PHO4, Saccharomyces cerevisiae, UniProt P07270, residues 1-312)
Method: competition protein-binding microarray
Form: double-stranded DNA, one strand shown
Sample: in vitro
Tested at: 2 µM
Notes: whole 60-bp probe, lowest competitor level
Added: Cbf1 competitor, 0.05 µM
Reading: higher = stronger binding
All sequences stand within: … GTCTTGATTCGCTTGACGCTGCTG
Construct (chain): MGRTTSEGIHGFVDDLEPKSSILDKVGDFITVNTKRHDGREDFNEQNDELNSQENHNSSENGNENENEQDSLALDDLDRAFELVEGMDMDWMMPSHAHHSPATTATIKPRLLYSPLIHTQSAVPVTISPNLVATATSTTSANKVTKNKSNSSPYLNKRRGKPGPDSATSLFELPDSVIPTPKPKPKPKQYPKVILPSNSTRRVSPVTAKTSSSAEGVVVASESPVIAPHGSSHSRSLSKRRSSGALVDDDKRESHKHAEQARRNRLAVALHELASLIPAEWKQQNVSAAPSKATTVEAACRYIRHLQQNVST
Oligonucleotide | fluorescence intensity
AGGCCCAAATGCTTGCACAGGCACAAGCTCAGGCTC | 4700 a.u.
CTAACGAAGGTTTGCGGTGTGGGTGACAAGCCAAGT | 5180 a.u.
CGGGGTTAAGTTTGGGGGGTGGGTGGCTTGCAGCAG | 5490 a.u.
GTCCCACCAGATTTGCACGTTTTGTTACCCCAGATA | 11300 a.u.
GAAGTAAGTTTTCCGCACGTAAAACTACTACAACAA | 4460 a.u.
TCACCCAAAACATTGATCATGCCTGAAGGTCCTAGG | 3640 a.u.
AAATTACTAAGTTGCTCGGTGGGTGACGCCGTATGA | 3100 a.u.
ACAGCGTCGGCGGGCCACGTGCGGGAGGAGGGGCCG | 15300 a.u.
AGACGTTGAGAAGTCCTCGTGAATAATCTGAATGAC | 6830 a.u.
CTTAAAAGTCTGGAAGGCGTGCTAATTGTCCTTTTA | 9880 a.u.
AAAGGCACCAAGATTCACCTGACGAAAGGCTCCCCC | 3190 a.u.
TCCAAAATTGACTCGCATGTGGTGTTGTCATTTTCT | 10100 a.u.
CTTCTGTAAATTTGGGCTGTGGGTGGACGCGCCCCG | 4790 a.u.
CACTGAGTACTTCCTCACCTGATCCAATCGATTTAA | 3190 a.u.
GCGGTCCCTGTCCTGCACACTGCACTCAACACCATA | 6230 a.u.
GCACCATATTTTAGTTCCGTGATGGTCAAGAATTTT | 3620 a.u.
